{"data": "Measurements pooled from the literature", "note": "Numbered parts are unrelated; each lists some results of a single study. Changes are numbered by the printed parent chain.", "UniProt O75417, sequence (whole entry, unmodified, looked up)": "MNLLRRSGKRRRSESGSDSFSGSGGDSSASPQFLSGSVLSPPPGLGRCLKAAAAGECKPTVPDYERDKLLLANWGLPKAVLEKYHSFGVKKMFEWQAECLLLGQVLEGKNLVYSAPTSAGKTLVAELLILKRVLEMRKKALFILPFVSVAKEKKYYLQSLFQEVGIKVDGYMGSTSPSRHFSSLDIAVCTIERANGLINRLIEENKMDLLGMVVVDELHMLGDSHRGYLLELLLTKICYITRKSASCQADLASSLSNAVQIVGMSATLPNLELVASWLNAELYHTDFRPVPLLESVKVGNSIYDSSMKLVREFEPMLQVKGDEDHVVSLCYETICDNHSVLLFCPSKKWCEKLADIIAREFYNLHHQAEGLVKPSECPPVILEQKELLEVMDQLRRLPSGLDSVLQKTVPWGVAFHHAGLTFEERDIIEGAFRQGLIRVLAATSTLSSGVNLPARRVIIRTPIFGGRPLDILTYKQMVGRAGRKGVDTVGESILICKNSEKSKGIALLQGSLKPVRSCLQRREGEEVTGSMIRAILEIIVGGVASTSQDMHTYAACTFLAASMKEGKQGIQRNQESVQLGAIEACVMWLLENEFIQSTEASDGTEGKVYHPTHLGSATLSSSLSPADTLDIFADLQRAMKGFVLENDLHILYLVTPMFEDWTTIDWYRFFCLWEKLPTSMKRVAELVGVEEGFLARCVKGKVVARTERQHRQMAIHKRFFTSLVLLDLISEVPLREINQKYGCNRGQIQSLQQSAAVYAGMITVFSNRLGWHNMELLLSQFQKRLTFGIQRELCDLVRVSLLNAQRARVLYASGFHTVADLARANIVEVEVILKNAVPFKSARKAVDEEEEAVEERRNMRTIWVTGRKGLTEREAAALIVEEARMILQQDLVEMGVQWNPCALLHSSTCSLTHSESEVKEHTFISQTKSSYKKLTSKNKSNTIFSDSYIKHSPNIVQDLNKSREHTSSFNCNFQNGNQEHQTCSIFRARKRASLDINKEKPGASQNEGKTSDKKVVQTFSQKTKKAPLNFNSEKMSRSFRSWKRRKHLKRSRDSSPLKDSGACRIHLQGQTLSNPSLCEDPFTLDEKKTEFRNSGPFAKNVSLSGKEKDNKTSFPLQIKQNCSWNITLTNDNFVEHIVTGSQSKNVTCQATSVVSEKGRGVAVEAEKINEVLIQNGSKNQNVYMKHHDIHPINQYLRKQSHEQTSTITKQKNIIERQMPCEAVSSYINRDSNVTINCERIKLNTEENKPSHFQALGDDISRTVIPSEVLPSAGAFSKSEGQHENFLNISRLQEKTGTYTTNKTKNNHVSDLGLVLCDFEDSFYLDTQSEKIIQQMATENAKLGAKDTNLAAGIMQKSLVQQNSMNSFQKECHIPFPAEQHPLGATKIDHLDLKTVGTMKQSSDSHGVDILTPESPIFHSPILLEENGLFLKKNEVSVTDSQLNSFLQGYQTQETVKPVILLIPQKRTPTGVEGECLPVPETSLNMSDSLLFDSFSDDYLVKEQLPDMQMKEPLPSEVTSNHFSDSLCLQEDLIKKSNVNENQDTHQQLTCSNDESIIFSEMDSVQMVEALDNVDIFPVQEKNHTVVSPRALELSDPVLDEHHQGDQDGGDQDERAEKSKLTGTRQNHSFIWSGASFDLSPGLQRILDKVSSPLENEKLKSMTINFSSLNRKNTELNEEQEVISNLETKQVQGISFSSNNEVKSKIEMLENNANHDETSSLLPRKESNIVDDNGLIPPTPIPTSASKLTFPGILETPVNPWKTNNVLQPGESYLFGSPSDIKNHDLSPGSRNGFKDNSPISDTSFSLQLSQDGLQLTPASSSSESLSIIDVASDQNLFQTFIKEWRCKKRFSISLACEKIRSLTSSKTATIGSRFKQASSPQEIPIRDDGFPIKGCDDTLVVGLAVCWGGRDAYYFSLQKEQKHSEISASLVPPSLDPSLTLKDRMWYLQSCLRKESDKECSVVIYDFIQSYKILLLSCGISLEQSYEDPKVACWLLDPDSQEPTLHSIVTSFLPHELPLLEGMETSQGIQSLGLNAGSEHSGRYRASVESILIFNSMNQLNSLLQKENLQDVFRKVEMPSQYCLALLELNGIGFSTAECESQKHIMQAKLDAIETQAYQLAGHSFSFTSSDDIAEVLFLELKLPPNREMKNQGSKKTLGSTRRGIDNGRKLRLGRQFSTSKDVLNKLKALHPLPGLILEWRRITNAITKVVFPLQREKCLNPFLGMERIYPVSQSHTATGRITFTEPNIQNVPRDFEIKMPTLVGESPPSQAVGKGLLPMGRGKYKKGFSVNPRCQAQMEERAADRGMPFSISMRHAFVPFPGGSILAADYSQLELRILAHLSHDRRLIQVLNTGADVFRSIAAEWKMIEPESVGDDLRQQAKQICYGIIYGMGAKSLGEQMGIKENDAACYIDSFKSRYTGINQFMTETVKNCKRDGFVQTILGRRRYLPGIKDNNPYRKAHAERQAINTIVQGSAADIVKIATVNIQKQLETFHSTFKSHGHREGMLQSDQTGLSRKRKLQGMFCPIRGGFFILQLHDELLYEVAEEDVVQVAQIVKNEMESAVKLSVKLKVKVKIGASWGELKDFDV"}
{"data": "Sample 1", "target": "vanadate, free oxyanion", "technique": "microfluidic competitive inhibition", "matrix": "in vitro, cell-free expressed", "tested at": "not given", "notes": "derived from inhibition constants, unchanged parent 676 nM", "direction": "lower = stronger binding", "starting sequence": "PafA, mature enzyme, eGFP fusion (Elizabethkingia meningoseptica, UniProt Q9KJX5); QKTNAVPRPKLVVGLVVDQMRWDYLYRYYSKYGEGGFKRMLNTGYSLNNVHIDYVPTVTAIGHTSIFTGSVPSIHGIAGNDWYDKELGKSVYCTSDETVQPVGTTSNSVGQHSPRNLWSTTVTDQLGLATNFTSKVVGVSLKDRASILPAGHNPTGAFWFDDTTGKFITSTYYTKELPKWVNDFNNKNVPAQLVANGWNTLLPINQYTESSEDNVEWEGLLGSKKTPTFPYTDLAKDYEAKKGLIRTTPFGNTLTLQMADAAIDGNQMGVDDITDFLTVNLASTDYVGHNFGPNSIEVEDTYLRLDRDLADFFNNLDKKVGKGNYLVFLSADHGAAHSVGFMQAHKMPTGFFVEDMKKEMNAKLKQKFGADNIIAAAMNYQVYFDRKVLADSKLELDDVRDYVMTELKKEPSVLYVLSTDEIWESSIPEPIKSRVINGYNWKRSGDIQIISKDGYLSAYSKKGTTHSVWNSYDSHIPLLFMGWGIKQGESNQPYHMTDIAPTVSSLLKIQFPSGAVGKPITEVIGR"}
{"Change": "L128V", "oxyanion analog dissociation constant": "724 nM"}
{"Change": "T123V", "oxyanion analog dissociation constant": "1.25 µM"}
{"Change": "P178G", "oxyanion analog dissociation constant": "591 nM"}
{"Change": "T274G", "oxyanion analog dissociation constant": "512 nM"}
{"Change": "I374G", "oxyanion analog dissociation constant": "626 nM"}
{"Change": "T349V", "oxyanion analog dissociation constant": "597 nM"}
{"Change": "L25G", "oxyanion analog dissociation constant": "577 nM"}
{"Change": "S223V", "oxyanion analog dissociation constant": "702 nM"}
{"data": "Sample 2", "target": "CCNE1, cyclin fold, Cln2 fusion (human)", "technique": "yeast growth competition, sequencing", "matrix": "yeast", "notes": "strong parent motif", "relative to": "not given", "direction": "higher = stronger binding", "starting sequence": "viral docking peptide; YKVKRRLVFGADD; partner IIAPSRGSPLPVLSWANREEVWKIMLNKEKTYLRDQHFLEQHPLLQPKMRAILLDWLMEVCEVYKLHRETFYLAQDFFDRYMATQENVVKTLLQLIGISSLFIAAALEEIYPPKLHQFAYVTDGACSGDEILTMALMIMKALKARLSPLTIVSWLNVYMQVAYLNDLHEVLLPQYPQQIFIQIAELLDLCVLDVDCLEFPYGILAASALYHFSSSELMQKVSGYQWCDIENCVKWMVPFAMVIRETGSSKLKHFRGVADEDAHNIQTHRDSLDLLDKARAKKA"}
{"Change": "K2V", "normalised enrichment score": 5.13}
{"Change": "V8W", "normalised enrichment score": 5.52}
{"Change": "G10Y", "normalised enrichment score": 5.06}
{"Change": "K2G", "normalised enrichment score": 6.65}
{"Change": "K4M", "normalised enrichment score": 1.94}
{"Change": "A11T", "normalised enrichment score": 6.24}
{"Change": "K2F", "normalised enrichment score": 5.32}
{"Change": "L7R", "normalised enrichment score": 0.78}
{"data": "Other studies, line by line"}
{"SMILES": "CNCc1ccccc1-c1csc([C@@H](C)Nc2nc(C)nc3cc(OC)c(OC)cc23)c1", "target": "CRK2 (Plasmodium falciparum, UniProt P61075)", "observed": "cell-free assay", "technique": "competition with immobilised ligand", "tested at": "1 µM", "quantity": "remaining binding", "result": "76%"}
{"SMILES": "CCOc1ccccc1-n1c(C(C)N2CCN(C(=O)COc3ccc(Cl)cc3)CC2)nc2ccccc2c1=O (stereo not drawn)", "target": "DNA polymerase theta, ATPase domain (POLQ, Homo sapiens, UniProt O75417)", "observed": "enzyme activity", "mode": "inhibitor", "tested at": "77 µM", "quantity": "remaining activity", "result": "102%"}
{"note": "Some of these lines once more (sample 1):"}
{"Change": "T123V", "oxyanion analog dissociation constant": "1.25 µM"}
{"Change": "P178G", "oxyanion analog dissociation constant": "591 nM"}
{"Change": "T274G", "oxyanion analog dissociation constant": "512 nM"}
